{"data": "Experimental data gathered from unrelated publications", "note": "Compare with care: the assays were run in different laboratories. Numbers after ± are the reported error."}
{"Compound": "O=C(NCC1OC2CCC=CCCC2O1)c1ccc([18F])nc1 (stereo not shown)", "test system": "female BALB/c nude mice, brain", "conditions": "intravenous, 10 min", "tissue uptake": "3.8 ± 1.7 %ID/g"}
{"Compound": "CN1C(=O)[C@@H](Cc2ccc(O)c(I)c2)NC(=O)CNC(=O)[C@H](Cc2ccc3ccccc3c2)NC(=O)[C@H](CCCNC(=N)N)NC(=O)[C@H]1CCCNC(=O)c1ccc(CNC(=O)CN2CCN(CC(=O)O)CCN(CC(=O)O)CCN(CC(=O)O)CC2)cc1 [lutetium-177 labelled]", "assay": "refers to: 177Lu radioactivity", "test system": "female CB-17 SCID mice, Daudi xenograft, liver", "conditions": "intravenous, 0.16 nmol per mouse, 1 h", "tissue uptake": "10.3 ± 0.8 %ID/g"}
{"Compound": "N=C(N)NCCC[C@H](NC(=O)[C@@H]1CSSC[C@H](NC(=O)[C@H](Cc2ccc3ccccc3c2)NC(=O)[C@H](CCCNC(=N)N)NC(=O)[C@H](CCCNC(=N)N)NC(=S)Nc2ccc(C[C@H]3CN(CC(=O)O)CCN(CC(=O)O)CCN3CC(=O)O)cc2)C(=O)N[C@@H](Cc2ccc(O)cc2)C(=O)N[C@@H](CCCNC(N)=O)C(=O)N[C@@H](CCCCN)C(=O)N[C@H](CCCCN)C(=O)N2CCC[C@H]2C(=O)N[C@@H](Cc2ccc(O)cc2)C(=O)N[C@@H](CCCNC(=N)N)C(=O)N[C@@H](CCCNC(N)=O)C(=O)N1)C(N)=O [copper-64 labelled]", "test system": "female athymic nude mice, blood", "conditions": "intravenous, 50 µCi, 4 h", "tissue uptake": "0.12 ± 0.01 %ID/g"}
{"Compound": "CCCC[C@H](NC(=O)CNC(=O)CNC(=O)CN1CCN(CC(=O)O)CCN(CC(=O)O)CC1)C(=O)N[C@H]1CC(=O)NCCCC[C@@H](C(N)=O)NC(=O)[C@H](Cc2c[nH]c3ccccc23)NC(=O)[C@H](CCCNC(=N)N)NC(=O)[C@@H](Cc2ccccc2)NC(=O)[C@H](Cc2c[nH]cn2)NC1=O [gallium-67 labelled]", "test system": "C57 mice, female, B16/F1 melanoma, intestines", "conditions": "intravenous, 0.037 MBq, 4 h", "tissue uptake": "0.91 ± 0.05 %ID"}
{"Compound": "N=C(N)NCCC[C@H](NC(=O)CON=C[C@H](F)[C@@H](O)[C@H](O)[C@H](O)CO)C(=O)NCC(=O)N[C@@H](CC(=O)O)C(=O)O [fluorine-18 labelled]", "test system": "nude mice U-87 MG tumour, muscle", "conditions": "intravenous, 2 h", "tissue uptake": "0.09 ± 0.03 %ID/g"}
{"Compound": "N=C(N)NCCC[C@@H]1NC(=O)[C@H](CCCCNC(=O)CC[C@H](NC(=O)[C@H]2O[C@@H](CNC(=O)c3ccc(F)cc3)[C@H](O)[C@@H](O)[C@H]2O)C(=O)NCCCC[C@@H]2NC(=O)[C@@H](Cc3ccc(O)cc3)NC(=O)[C@H](CC(=O)O)NC(=O)CNC(=O)[C@H](CCCNC(=N)N)NC2=O)NC(=O)[C@@H](Cc2ccc(O)cc2)NC(=O)[C@H](CC(=O)O)NC(=O)CNC1=O [fluorine-18 labelled]", "assay": "small-animal PET", "test system": "female athymic nude mice, U-87 MG xenograft, liver", "conditions": "intravenous, 3.7 MBq, 60 min", "tissue uptake": "0.59 ± 0.1 %ID/g"}
{"Compound": "CCCC[C@@H]1NC(=O)[C@@H](NC(=O)[C@H](CCC(=O)O)NC(=O)CNC(=O)CN2CCN(CC(=O)O)CCN(CC(=O)O)CCN(CC(=O)O)CC2)CCCCNC(=O)C[C@@H](C(N)=O)NC(=O)[C@H](C(C)C)NC(=O)[C@@H]2CCCN2C(=O)[C@H](CCCNC(=N)N)NC(=O)CNC(=O)[C@H](Cc2c[nH]c3ccccc23)NC(=O)[C@H](CCCNC(=N)N)NC(=O)[C@@H](Cc2ccccc2)NC(=O)[C@H](Cc2c[nH]cn2)NC(=O)[C@H](CCC(=O)O)NC1=O [gallium-67 labelled]", "test system": "C57 mice, B16/F1 flank melanoma, brain", "conditions": "intravenous, 2 h, together with: blocking peptide 10 µg", "tissue uptake": "0.01 %ID/g"}
{"Compound": "NC12CNCCNCC(NCc3ccc(CNC(=O)CCCC(=O)NCc4ccc(-c5nncnn5)cc4)cc3)(CNCCNC1)CNCCNC2.[64Cu+2]", "test system": "athymic nude mice, SW1222 xenograft, large intestine with contents", "conditions": "1 h, pretargeting with huA33-TCO, 24 h interval", "tissue uptake": "0.21 ± 0.09 %ID/g"}
{"Compound": "CC(F)C(=O)NC[C@@H]1O[C@H](C(=O)NCCCC[C@@H]2NC(=O)[C@@H](Cc3ccc(O)cc3)NC(=O)[C@H](CC(=O)O)NC(=O)CNC(=O)[C@H](CCCNC(=N)N)NC2=O)[C@H](O)[C@H](O)[C@H]1O (stereo partly shown) [fluorine-18 labelled]", "assay": "small-animal PET", "test system": "female athymic nude mice, U-87 MG xenograft, muscle", "conditions": "intravenous, 3.7 MBq, 120 min", "tissue uptake": "0.07 ± 0.01 %ID/g"}
{"Compound": "O=C([O-])CN1CCN(CC(=O)[O-])CCN(CC(=O)[O-])CCN(CC(=O)[O-])CC1.[64Cu+2]", "test system": "nude athymic mice, healthy, femur", "conditions": "intravenous, 1 h, 64Cu label", "tissue uptake": "0.45 %ID/g"}
